Results pooled from the literature.
Compare with care: the assays were run in different laboratories.
Sample: plasma

Structure (SMILES) | species | route | dose | setting | endpoint | value
COc1cc(OC)c2c(=O)cc(-c3cc(C)c(OCCCN4CCN(C)CC4)c(C)c3)oc2c1 | male Sprague-Dawley rat | oral | 20 mg/kg | single dose | AUC(0-t) | 7040 ng·h/mL
O=C(C1CCN(c2nnnn2-c2ccccc2)CC1)N1CCCc2ccccc21 | male Sprague-Dawley rat | intravenous | 1 mg/kg |  | AUC(0-inf) | 511 ng·h/mL
CCC(CC)n1c(Cc2ccco2)nc2cc(C(=O)N[C@@H](CC(=O)O)c3ccccc3)ccc21 | male Sprague-Dawley rat | intraperitoneal | 10 mg/kg |  | AUC(0-t) | 4920 ng·h/mL
CC(C)C[C@H](NC(=O)[C@H](CCCN)NC(=O)CNC(=O)[C@@H](NC(=O)[C@H](C)NC(=O)[C@@H]1CSCSC[C@H](NC(=O)CC[C@H](N)C(=O)O)C(=O)N[C@@H](CC(N)=O)C(=O)N[C@@H]([C@@H](C)O)C(=O)N[C@@H](C)C(=O)N[C@@H]([C@@H](C)O)C(=O)N1)[C@@H](C)O)C(=O)N[C@@H](C)C(=O)N[C@@H](CCC(=O)O)C(=O)N[C@@](C)(Cc1ccccc1)C(=O)N[C@@H](CC(C)C)C(=O)N[C@H](C(=O)N[C@@H](CCCNC(=N)N)C(=O)N[C@@H](CO)C(=O)N[C@@H](CO)C(=O)N[C@@H](CC(N)=O)C(=O)N(C)[C@@H](CC(N)=O)C(=O)N[C@@H](Cc1ccccc1)C(=O)NCC(=O)N1CCC[C@H]1C(=O)N[C@@H](CCCCNC(=O)CC[C@H](NC(=O)CC[C@H](NC(=O)CCCCCCCCCCCCCCCCCCC(=O)O)C(=O)O)C(=O)O)C(=O)N[C@@H](CC(C)C)C(=O)N1CCC[C@H]1C(=O)N1CCC[C@H]1C(=O)N[C@H](C(=O)N[C@@H](CCC(=O)O)C(=O)N[C@H](C(=O)NCC(=O)N[C@@H](CO)C(=O)N[C@@H](CC(N)=O)C(=O)N[C@H](C(=O)N[C@@H](Cc1ccc(O)cc1)C(N)=O)[C@@H](C)O)C(C)C)[C@@H](C)O)C(C)C | male Sprague-Dawley rat | subcutaneous | 30 nmol/kg | single dose | AUC(0-inf) | 14.2 µM·h
C/C(N)=N/C(=N\S(=O)(=O)c1ccc(C(F)(F)F)cc1)N1C[C@H](c2ccccc2)C(c2ccc(Cl)cc2)=N1 | male Sprague-Dawley rat | intravenous | 3 mg/kg |  | AUC(0-inf) | 6270 ng·h/mL
CN1CCC[C@@H]1C(=O)N[C@@H](Cc1ccc(-c2ccccc2)cc1)B(O)O | male Sprague-Dawley rat | oral | 1 mg/kg |  | AUC(0-t) | 0.853 µM·h
COC1C(c2ccc(Cl)c(Cc3ccc(OC4CCOC4)cc3)c2)OC(CO)C(O)C1O (stereo not drawn) | Sprague-Dawley rat | intravenous | 2.5 mg/kg |  | AUC | 3730 ng·h/mL
CC1(C)C(NC(=O)C(=NOC2(C(=O)O)CCC2)c2csc(N)n2)C(=O)N1OS(=O)(=O)O (stereo not drawn) | rat | intravenous | 10 mg/kg | single dose | AUC | 16200 ng·h/mL
Cc1cccc(Cn2ncc3c4cc(F)c(CN(C)C)cc4n(C)c3c2=O)n1 | Sprague-Dawley rat | oral | 10 mg/kg |  | AUC(0-t) | 1290 ng·h/mL
COc1cc(-c2cc(=O)c3ccc(OCCCn4c(Cl)nc5ccccc54)cc3o2)cc(OC)c1OC | male Sprague-Dawley rat | intravenous | 10 mg/kg |  | AUC(0-inf) | 192 ng·h/mL
CCCN(C)c1cc(C(F)(F)F)nc(SCCC(=O)NCc2ccco2)n1 | male Wistar rat | intraperitoneal | 25 mg/kg | single dose | AUC(0-inf) | 929 ng·h/mL
CCC(CC)n1c(Cc2cccs2)nc2cc(C(=O)N[C@@H](CC(=O)O)c3ccccc3)ccc21 | male Sprague-Dawley rat | intraperitoneal | 10 mg/kg |  | AUC(0-t) | 3540 ng·h/mL
COc1cc(C2C3=C(COC3=O)N(CCO)c3cc4c(cc32)CCC4)cc(OC)c1OC (stereo not drawn) | female Sprague-Dawley rat | intraperitoneal | 50 mg/kg |  | AUC(0-t) | 2780 ng·h/mL
CC(=Nc1ccc(N)cc1)N(C)C | male Sprague-Dawley rat | intravenous | 20 mg/kg |  | AUC(0-t) | 3530 ng·h/mL
O=c1c(-c2ccc(Cl)c(CN3CCOCC3)c2)coc2cc(O)ccc12 | male Sprague-Dawley rat | oral | 10 mg/kg |  | AUC(0-inf) | 477 ng·h/mL
OC1(C(F)(F)F)CCN(c2nc(Nc3ccnc(C(F)(F)F)c3)nc(-c3cccc(C(F)(F)F)n3)n2)C1 (stereo not drawn) | Sprague-Dawley rat | oral | 10 mg/kg |  | AUC(0-inf) | 17200 ng·h/mL
COC(=O)C1=CNC=C(C(=O)OC)C1c1ccc(F)c(C(F)(F)F)c1 | male Sprague-Dawley rat | intravenous | 5 mg/kg |  | AUC(0-t) | 832 ng·h/mL
Cc1cc2c(cc1O)C=C1C=CC(=O)C(C)(C)[C@H]1CC2 | male Sprague-Dawley rat | intravenous | 2 mg/kg |  | AUC(0-t) | 619 ng·h/mL
